{"data": "Measurements from different studies", "note": "Protocols differ between the studies behind these lines."}
{"Structure (SMILES)": "CC(C)[C@H]1NC(=O)C[C@H]2/C=C/CCSSC[C@@H](NC1=O)C(=O)N[C@H](Cc1cccc3ccccc13)C(=O)NCC(=O)O2", "host": "nude mouse", "sample": "blood", "route": "oral", "dose": "24 mg/kg", "endpoint": "AUC(0-inf)", "result": "3.5 ng·h/mL"}
{"Structure (SMILES)": "CC(C)(CCCC/C=C/CCCCCC(C)(C)C(=O)O)C(=O)O", "host": "CD-1 mouse", "sample": "plasma", "route": "intravenous", "dose": "10 mg/kg", "endpoint": "AUC(0-t)", "result": "138000 ng·h/mL"}
{"Structure (SMILES)": "NC1CCN(C(=O)OC2CCCC3(C2)OOC2(O3)C3CC4CC(C3)CC2C4)CC1 (stereo not shown)", "host": "mouse", "sample": "plasma", "route": "oral", "dose": "50 mg/kg", "notes": "single dose", "endpoint": "AUC(0-t)", "result": "3430 ng·h/mL"}
{"Structure (SMILES)": "CSCC[C@H](NC(=O)CNC(=O)[C@H](CC(=O)O)NC(=O)[C@@H](NC(=O)[C@@H](NC(=O)[C@@H](NC(=O)CNC(=O)[C@H](CCC(=O)O)NC(=O)[C@H](CCSC)NC(=O)[C@H](CC(=O)O)NC(=O)[C@H](C)NC(=O)[C@H](C)NC(=O)[C@@H](NC(=O)[C@H](CO)NC(=O)[C@@H](N)CC(C)C)[C@@H](C)O)C(C)C)C(C)C)[C@@H](C)O)C(=O)N[C@@H](C)C(=O)N[C@@H](CO)C(=O)NCC(=O)N[C@@H](CC(C)C)C(=O)N[C@@H](CC(=O)O)C(=O)N[C@@H](CCCCN)C(=O)N[C@@H](CC(=O)O)C(=O)N[C@@H](Cc1ccc(O)cc1)C(=O)N[C@@H](CC(C)C)C(=O)N[C@@H](CCCCN)C(=O)N1CCC[C@H]1C(=O)N[C@@H](CC(=O)O)C(=O)N[C@@H](CC(=O)O)C(=O)O", "host": "male CD-1 mouse", "sample": "serum", "route": "intravenous", "dose": "480 mg/kg", "endpoint": "AUC(0-t)", "result": "278000 ng·h/mL"}
{"Structure (SMILES)": "CCCC[C@@H]1NC(=O)[C@H](Cc2ccc(O)cc2)NC(=O)[C@@H]2CCCN2C(=O)[C@H](CC(=O)O)NC(=O)[C@H](C)NC(=O)[C@H](Cc2ccccc2)NC(=O)[C@@H]2CSCCC(=O)N3CN(CN(C3)C(=O)CCSC[C@@H](C(=O)N[C@@H](C)C(N)=O)NC1=O)C(=O)CCSC[C@H](NC(C)=O)C(=O)N[C@@H](CC(C)(C)C)C(=O)N1CCC[C@H]1C(=O)N[C@@H](CCC(=O)O)C(=O)N[C@H](CCCCNC(=O)CCc1cn(CCOCCOCCOCCN(CCOCCOCCOCCC(=O)N[C@H]3CSCCC(=O)N4CN5CN(C4)C(=O)CCSC[C@H](NC(=O)[C@@H](CC(=O)O)NC(=O)[C@H](Cc4cccc6ccccc46)NC(=O)[C@@H]4CCCN4C3=O)C(=O)N[C@@H](CCSC)C(=O)N[C@@H](CCCCNC(=N)N)C(=O)N[C@@H](CC(=O)O)C(=O)N[C@@H](Cc3c[nH]c4ccccc34)C(=O)N[C@@H](CO)C(=O)N[C@@H]([C@@H](C)O)C(=O)N3CCC[C@H]3C(=O)N3C[C@H](O)C[C@H]3C(=O)N[C@@H](Cc3c[nH]c4ccccc34)C(=O)N[C@H](C(N)=O)CSCCC5=O)CCOCCOCCOCCn3cc(CCC(=O)NCCCC[C@H]4NC(=O)[C@H](CCC(=O)O)NC(=O)[C@@H]5CCCN5C(=O)[C@H](CC(C)(C)C)NC(=O)[C@@H](NC(C)=O)CSCCC(=O)N5CN6CN(C5)C(=O)CCSC[C@H](NC(=O)[C@H](Cc5ccc(O)cc5)NC(=O)[C@@H]5CCCN5C4=O)C(=O)N[C@@H](Cc4ccccc4)C(=O)N[C@@H](C)C(=O)N[C@@H](CC(=O)O)C(=O)N4CCC[C@H]4C(=O)N[C@@H](Cc4ccc(O)cc4)C(=O)N[C@@H](CCCC)C(=O)N[C@H](C(=O)N[C@@H](C)C(N)=O)CSCCC6=O)nn3)nn1)C(=O)N1CCC[C@H]1C(=O)N[C@@H](Cc1ccc(O)cc1)C(=O)N2", "host": "mouse", "sample": "plasma", "route": "intraperitoneal", "dose": "15 mg/kg", "endpoint": "AUC(0-inf)", "result": "2.02 µM·h"}
{"Structure (SMILES)": "O=C(CN1CCN(c2cc3c(cc2F)c(=O)c(C(=O)O)cn3C2CC2)CC1)Nc1ccc(Cl)cc1", "host": "mouse", "sample": "plasma", "route": "intravenous", "dose": "1.25 mg/kg", "endpoint": "AUC", "result": "93200 ng·h/mL"}
{"Structure (SMILES)": "O=c1cc(-c2ccccc2)oc2c(Br)c(O)c(O)c(O)c12", "host": "C57BL/6 mouse", "sample": "plasma", "route": "intravenous", "dose": "10 mg/kg", "notes": "single dose", "endpoint": "AUC(0-inf)", "result": "3210 ng·h/mL"}
{"Structure (SMILES)": "C[C@@](O)(C(F)F)[C@H](NC(=O)c1ccc(C#CC#CC2CC2)cc1)C(=O)NO", "host": "mouse", "sample": "plasma", "route": "intraperitoneal", "dose": "40 mg/kg", "endpoint": "AUC(0-inf)", "result": "24200 ng·h/mL"}
{"Structure (SMILES)": "CS(C)(=O)=Nc1ccc(-c2ccc(-c3nc4cc(O[C@@H]5CO[C@H]6[C@@H]5OC[C@H]6O)[nH]c4cc3F)cc2)cc1", "host": "female C57BL/6 mouse", "sample": "plasma", "route": "intravenous", "dose": "3 mg/kg", "endpoint": "AUC", "result": "2850 ng·h/mL"}
{"Structure (SMILES)": "CCCCCCCC(=O)NC[C@H](NC(=O)[C@H](CO)NC(=O)CN)C(=O)N[C@@H](Cc1ccccc1)C(=O)N[C@@H](CC(C)C)C(=O)N[C@@H](CO)C(=O)N1CCC[C@H]1C(=O)N[C@@H](CCC(=O)O)C(=O)N[C@@H](Cc1c[nH]cn1)C(=O)N[C@@H](CCC(N)=O)C(=O)N[C@@H](CCCNC(=N)N)C(=O)N[C@H](C(=O)N[C@@H](CCC(N)=O)C(=O)N[C@H](C(=O)N[C@@H](CCCNC(=N)N)C(=O)N1CCC[C@H]1C(=O)N1CCC[C@H]1C(=O)N[C@@H](Cc1c[nH]cn1)C(=O)N[C@@H](CCCCN)C(=O)N[C@@H](C)C(=O)N1CCC[C@H]1C(=O)N[C@@H](Cc1c[nH]cn1)C(=O)N[C@H](C(=O)N[C@H](C(=O)O)C(C)C)C(C)C)C(C)C)C(C)C", "host": "mouse", "sample": "plasma", "route": "subcutaneous", "dose": "7.2 mg/kg", "endpoint": "AUC(0-inf)", "result": "268 ng·h/mL"}
